Results collected from several papers.
Lines come from different studies, so protocols differ. Numbers after ± are the reported error. Ends that are not written are not given here.
B1: neurofilament light chain; sequence looked up; chain SSFSYEPYYSTSYKRRYVETPRVHISSVRSGYSTARSAYSSYSAPVSSSLSVRRSYSSSSGSLMPSLENLDLSQVAAISNDLKSIRTQEKAQLQDLNDRFASFIERVHELEQQNKVLEAELLVLRQKHSEPSRFRALYEQEIRDLRLAAEDATNEKQALQGEREGLEETLRNLQARYEEEVLSREDAEGRLMEARKGADEAALARAELEKRIDSLMDEISFLKKVHEEEIAELQAQIQYAQISVEMDVTKPDLSAALKDIRAQYEKLAAKNMQNAEEWFKSRFTVLTESAAKNTDAVRAAKDEVSESRRLLKAKTLEIEACRGMNEALEKQLQELEDKQNADISAMQDTINKLENELRTTKSEMARYLKEYQDLLNVKMALDIEIAAYRKLLEGEETRLSFTSVGSITSGYSQSSQVFGRSAYGGLQTSSYLMSTRSFPSYYTSHVQEEQIEVEETIEAAKAEEAKDEPPSEGEAEEEEKDKEEAEEEEAAEEEEAAKEESEEAKEEEEGGEGEEGEETKEAEEEEKKVEGAGEEQAAKKKD

`COc1cccc2c1C(=O)c1c(O)c3c(c(O)c1C2=O)C[C@@](O)(C(=O)CO)C[C@@H]3O[C@H]1C[C@H](NC(=O)[C@@H]2CCCN2C(=O)CN)[C@H](O)[C@H](C)O1` has a Cmax of 3700 nM (mouse, E0771 tumour-bearing, plasma; intravenous, 92 µmol/kg PhAc-ALGP-Dox).
For `KCNTATCATQRLANFLVHSSNNFGPILPPTNVGSNTY (Pramlintide; not fully specified (C-terminus, bridges); cysteine pairing not given here; sequence looked up)`, “adverse event incidence” read 12.5% (refers to: Nasopharyngitis; peptide, obese or overweight humans; concentration not given, ITT population).
With `insulin degludec` the Cmax ratio was 1.23 (ELISA; human severe renal impairment, serum; dose not given, single dose; baseline: impaired over normal renal function).
For `insulin aspart`, the Cmax ratio was 99.9% (human, healthy; subcutaneous, 0.2 U/kg; baseline: reference insulin aspart (EU)).
With `CC(C)[C@H](NC(=O)[C@@H]1CCCN1C(=O)[C@H](CCCNC(=N)N)NC(=O)[C@H](CS)NC(=O)[C@H](Cc1c[nH]c2ccccc12)NC(=O)[C@H](CCCNC(=N)N)NC(=O)[C@@H](Cc1ccccc1)NC(=O)[C@H](Cc1c[nH]cn1)NC(=O)[C@H](CCC(=O)O)NC(=O)[C@H](CS)NC(=O)[C@H](CS)NC(=O)[C@H](CCCCN)NC(=O)[C@@H]1CC(=O)N[C@@H](CCCNC(=N)N)C(=O)N[C@@H](C)C(=O)N[C@@H](CC(=O)O)C(=O)N[C@H](Cc2ccc(O)cc2)C(=O)N1)C(N)=O` [technetium-99m labelled] the tissue uptake was 0.29 ± 0.07 %ID/g (C57 mice, lung; intravenous, 0.037 MBq, 24 h).
For `insulin glulisine`, the Cmax was 0.534 nM (obese type 2 diabetes patients, serum; subcutaneous, 0.2 U/kg, geometric mean).
`insulin glulisine` — result for “time to 50% exposure”: 124 ± 27 min (refers to: insulin; healthy volunteers, serum; subcutaneous, 0.15 U/kg).
With `desB30 human insulin` the adsorption enthalpy was -30.4 ± 4.78 kcal/mol (reversed-phase chromatography; C4 silica; pH 7.5).
With `CSCC[C@H](NC(=O)[C@H](CC(C)C)NC(=O)[C@H](Cc1c[nH]cn1)NC(=O)CNC(=O)[C@@H](NC(=O)[C@H](C)NC(=O)[C@H](Cc1c[nH]c2ccccc12)NC(=O)[C@H](CCC(N)=O)NC(=O)CCCCCNC(=O)[C@H](CCC(=O)NCCCC[C@@H]1NC(=O)[C@@H](Cc2ccc(O)cc2)NC(=O)[C@H](CC(=O)O)NC(=O)CNC(=O)[C@H](CCCNC(=N)N)NC1=O)NC(=O)CN1CCN(CC(=O)O)CCN(CC(=O)O)CC1)C(C)C)C(N)=O` [copper-64 labelled] the tissue uptake was 0.51 ± 0.08 %ID/g (ICR SCID mouse, female, lung; intravenous, 750 kBq, 4 h).
With `rnpA F107W (Bacillus subtilis)` the pKa was 5.73 (NMR, refers to: His105; 25 °C, 1.00 M NaCl, folded, sulfate-bound, numbering of the source, added: sulfate 20 mM).
`DSSEEKFLRRIGRFGYGYGPYQPVPEQPLYPQPYQPQYQQYTF (statherin; sequence looked up)` gave a half-life of 26 min (RP-HPLC; pooled human whole saliva; 400 µg/mL, 37 °C).
`glial fibrillary acidic protein`: stability “stable” (human EDTA whole blood; 24 h, 2 to 8 °C, delayed centrifugation).
`rhodamine B-labelled bovine serum albumin` gave an apparent permeability of 0.06 ×10⁻⁶ cm/s (human BBB triple coculture; concentration not given, apical to basolateral).
Under stability, `B1 (neurofilament light chain)` is recorded as “stable” (human EDTA whole blood; 24 h, room temperature, delayed centrifugation).
`insulin human` has a partition coefficient of 0.07 ± 0.04 (shake-flask; octanol/buffer; pH 7.4, 37 °C).
`insulin lispro` has an AUC(0-inf) of 12.4 ± 1.46 ng·h/mL (healthy Japanese men, fasted, plasma; subcutaneous, 0.3 U/kg).
`CC1=C(I)C(C)=[N+]2C1=C(c1ccc(OCCn3cc(CNC(=O)CSC[C@H](NC(=O)c4ccc(-c5nnc(C)c6c5CCC(O)CCC6)cc4)C(=O)N[C@@H](CCCNC(=N)N)C(=O)N[C@@H](CCCNC(=N)N)C(=O)N[C@@H](CCCNC(=N)N)C(=O)N[C@@H](CCCNC(=N)N)C(=O)N[C@@H](CCCNC(=N)N)C(=O)N[C@@H](CCCNC(=N)N)C(=O)N[C@@H](CCCNC(=N)N)C(=O)N[C@@H](CCCNC(=N)N)C(N)=O)nn3)cc1)c1c(C)c(I)c(C)n1[B-]2(F)F` (some centres unmarked) — result for “singlet oxygen quantum yield”: 0.6 (1 µM, added: DPBF, 525 nm light; baseline: rose bengal, erythrosine B).

A few entries again:
Under stability, `B1 (neurofilament light chain)` is recorded as “stable” (human EDTA whole blood; 24 h, room temperature, delayed centrifugation).
With `desB30 human insulin` the adsorption enthalpy was -30.4 ± 4.78 kcal/mol (reversed-phase chromatography; C4 silica; pH 7.5).
